Experimental data of several laboratories.
Protocols differ between the studies behind these lines. ± gives the spread as reported.

Compound	assay	test system	setting	scale	quantity	value
COCC1CN(C2CCN(c3cc(OC)c(Nc4ncc(Br)c(Nc5ccc6c(c5P(C)(C)=O)OCCO6)n4)cc3C)CC2)C1		human patients	oral, 10 to 240 mg once daily		treatment-related Anemia, all grades	11.1%
CCCC[C@@H]1NC(=O)[C@@H](NC(=O)[C@H](CCC(=O)O)NC(=O)CNC(=O)CN2CCN(CC(=O)O)CCN(CC(=O)O)CCN(CC(=O)O)CC2)CCCCNC(=O)C[C@@H](C(N)=O)NC(=O)[C@H](C(C)C)NC(=O)[C@@H]2CCCN2C(=O)[C@H](CCCNC(=N)N)NC(=O)CNC(=O)[C@H](Cc2c[nH]c3ccccc23)NC(=O)[C@H](CCCNC(=N)N)NC(=O)[C@@H](Cc2ccccc2)NC(=O)[C@H](Cc2c[nH]cn2)NC(=O)[C@H](CCC(=O)O)NC1=O [gallium-67 labelled]		C57 mice, B16/F1 flank melanoma, skin	intravenous, 0.037 MBq/mouse, 24 h		tissue uptake	0.07 ± 0.06 %ID/g
O=C(CCc1ccc(CNC(C(=O)OC2CCCC2)C2CCCCC2)cn1)NO (stereo not shown)		human, plasma	oral, 40 mg, multiple doses, once daily, patients		Vd/F	93.5 L
COc1cc(NC(C)=O)c2c(c1O)-c1c(OC)c(OC)cc3c1C(C2)N(C)CC3 (stereo not shown)		rat, plasma	0.5 µg/mL, time not given, -20 °C to room temperature, three freeze-thaw cycles		remaining compound	104 ± 3.5%
CC12CC3CC(C)(C1)CC(NC(=O)Nc1ccc(C(=O)N4CCC[C@H](C(N)=O)C4)cc1F)(C3)C2		Sprague Dawley rats, both sexes, plasma	oral, 50 mg/kg		Vz	79.1 L
CC(NC(=O)OC1OC(C(=O)O)C(O)C(O)C1O)c1cc(Cl)ccc1Cn1c(=S)[nH]c(=O)c2[nH]ccc21 (stereo not shown)		Sprague-Dawley rat, male, plasma	oral, 125 mg/kg/day	relative to: rat over human 15 mg	exposure ratio	1.5
COC1C=COC2(C)Oc3c(C)c(O)c4c(c3C2=O)C2=NC3(CCN(CC(C)C)CC3)NC2=C(NC(=O)C(C)=CC=CC(C)C(O)C(C)C(O)C(C)C(OC(=O)c2cncnc2)C1C)C4=O (stereo not shown)		CD-1 mouse female, plasma	oral, 10 mg/kg		fAUC/MIC ratio	96
CNC(=O)N[C@]1(C)CCC[C@@]2(C)C3CC[C@@]4(C)C[C@]3(CCC21)CC4=O (single isomer, unassigned)		rat plasma	400 ng/mL, 101 d, -80 °C, long-term storage stability	relative to: nominal concentration	relative error	0.6%
CN1CCC[C@]1(C)/C=C/S(=O)(=O)NC(=O)Nc1c2c(cc3c1CCC3)CCC2		human, plasma	oral, 100 mg, single dose, healthy volunteers		AUC(0-inf)	92800 ng·h/mL
CCOc1ccc2c(c1)C(C)CC(C)(C)N2 (stereo not shown)	LC-MS/MS	laying hens, skin and fat	oral in feed, 50 mg/kg feed ethoxyquin, 56 days		tissue residue	1.8 ± 1.5 ng/g
Cn1c(=O)oc2ccc(-c3ccc(CC(C#N)NC(=O)C4CNCCCO4)c(F)c3)cc21 (stereo not shown)	measured: bacterial test positive	human volunteers	oral		treatment-emergent adverse event incidence	7.4%
C[C@]12C[C@H](c3ccccc3)C3=C4CCC(=O)C=C4CC[C@H]3[C@@H]1CC[C@@]2(O)C(F)(F)C(F)(F)F		human liver microsomes	100 % absorption assumed		maximal oral bioavailability	79%
CC[C@H](C)[C@H](NC(=O)[C@H](N)Cc1ccc(O)cc1)C(=O)N[C@H]1CSSC[C@@H](C(=O)N(C)[C@H](C(N)=O)[C@@H](C)CC)NC(=O)[C@H](CCCNC(=N)N)NC(=O)[C@H](Cc2c[nH]cn2)NC(=O)[C@H](C)NC(=O)CN(C)C(=O)[C@H](Cc2c[nH]c3ccccc23)NC(=O)[C@H](CC(=O)O)NC(=O)[C@H](CCC(N)=O)NC(=O)[C@H](Cc2cn(C)c3ccccc23)NC(=O)[C@H](C(C)C)NC1=O	UPLC-ESI-MS	cynomolgus monkey plasma	0.18 µg/mL, 24 h, 4 °C, autosampler after SPE		recovery	99.9 ± 0.4%
NC[C@@H](C(=O)Nc1ccc(-c2cn[nH]c2)cc1)c1ccccc1	OECD 405 eye irritation	New Zealand White rabbit, eye	topical, 0.1%, 0 h (day 1)	direction not given	total eye irritation score	0
CC(C)[C@H](NC(=O)CNC(=O)[C@H](CCC(N)=O)NC(=O)[C@H](C)N)C(=O)O	LC-MS/MS	human, plasma	intravenous, 30 mg/kg three times daily, day 1, first dose, 10 min infusion, geometric mean		AUC(0-inf)	646 ng·h/mL
COc1cc2c(cc1OC)CN(CCCCn1ccc3cc(OCC[18F])ccc31)C2		male ICR mice	intravenous, 280 kBq, 30 min post-injection		muscle uptake	2.48 ± 0.18 %ID/g
COc1ccc(CNC[C@@](O)(COCc2ccc(F)cc2)[C@@H]2CC[C@@H](C)C[C@H]2OCc2ccc(F)cc2)cc1	PAMPA-GI	phosphatidylcholine-cholesterol membrane	500 µM, 4 h, pH 6.5, 37 °C, 5% DMSO		permeability	27.4 ± 1.6 ×10⁻⁶ cm/s
CC(=O)c1cnc(N)nc1N1CC[C@H]1c1nn2ccc(Cl)c2c(=O)n1-c1ccccc1		rat Wistar female collagen-induced arthritis, plasma	oral, 1 mg/kg twice daily		AUC	6560 ± 600 ng·h/mL
CC(C)(O)c1ncc([S@](N)(=O)=NC(=O)Nc2c3c(cc4c2CCC4)CCC3)s1		human, plasma	oral, 3 mg, single dose, fasted, healthy volunteers		half-life	8.62 h
C[C@H](CN(C)Cc1ccccc1)NC(=O)c1ccc(-c2noc(C(F)(F)[18F])n2)cc1	PET	Sprague-Dawley rat, female, brain and heart	intravenous, 10 min	relative to: brain SUV over heart SUV	brain-to-heart ratio	4.71 ± 0.35

Compound	assay	test system	setting	scale	quantity	value
O=C(O)C1CN(Cc2ccc(-c3noc(-c4ccc(OCC[18F])c(C(F)(F)F)c4)n3)cc2)C1		rat, blood	intravenous, 30 min		tracer uptake	0.24 %ID/g
CCCCCCCCCCCCCCCC(=O)N[C@@H](CCCCN)C(=O)N[C@@H](CCCCN)C(=O)N[C@@H](CO)C(=O)N[C@@H](CCCNC(=N)N)C(=O)N[C@@H](C)C(=O)N[C@@H](CC(C)C)C(=O)N[C@@H](Cc1ccccc1)C(N)=O		CABG patients	dose not given, 24 h, all doses combined		chest tube drainage	425 mL
Cc1ccc(OCC(=O)N(Cc2cccs2)c2ccn[nH]2)cc1		female Sprague-Dawley rat, plasma	oral, 100 mg/kg, single dose		bioavailability	0.53%
CC[C@H](C)[C@H](NC(=O)[C@H](C)NC(=O)CNC(=O)[C@H](Cc1ccccc1)NC(=O)[C@H](CC(N)=O)NC(=O)[C@H](CC(N)=O)NC(=O)[C@H](CO)NC(=O)[C@H](CO)NC(=O)[C@H](Cc1c[nH]cn1)NC(=O)[C@@H](NC(=O)[C@H](CC(C)C)NC(=O)[C@H](Cc1ccccc1)NC(=O)[C@H](CC(N)=O)NC(=O)[C@H](C)NC(=O)[C@H](CC(C)C)NC(=O)[C@H](CCCNC(=N)N)NC(=O)[C@H](CCC(N)=O)NC(=O)[C@@H](NC(=O)[C@H](C)NC(=O)[C@@H]1CSSC[C@H](NC(=O)[C@@H](N)CCCCN)C(=O)N[C@@H](CC(N)=O)C(=O)N[C@@H]([C@@H](C)O)C(=O)N[C@@H](C)C(=O)N[C@@H]([C@@H](C)O)C(=O)N1)[C@@H](C)O)C(C)C)C(=O)N[C@@H](CC(C)C)C(=O)N1CCC[C@H]1C(=O)N1CCC[C@H]1C(=O)N[C@H](C(=O)N[C@@H](CC(N)=O)C(=O)N[C@H](C(=O)NCC(=O)N[C@@H](CO)C(=O)N[C@@H](CC(N)=O)C(=O)N[C@H](C(=O)N[C@@H](Cc1ccc(O)cc1)C(N)=O)[C@@H](C)O)C(C)C)[C@@H](C)O	ion mobility mass spectrometry	nitrogen drift gas	dimer charge +5, second conformer		collision cross section	929 ± 15.4 Å²
NCCC(=O)N1Cc2ccccc2-c2c(nnn2-c2nc(N)c3ncn(C4OC(CO)C(O)C4O)c3n2)-c2ccccc21 (mixture of isomers)	frequency-domain fluorometry	methanol			average fluorescence lifetime	2.8 ns
C#CC(C)NC(=O)C(CC(C)(C)F)NC(c1ccc(-c2ccc(S(C)(=O)=O)cc2)cc1)C(F)(F)F (stereo not shown)	LC-MS UV trace	aqueous buffer	concentration not given, 23 h, pH 7.5, 37 °C, added: cysteine 10 mM		cysteine adduct formation	< 1%
CCCCC/C=C/C=C/C(=O)NCC(C)C		processed rat plasma	4000 ng/mL, 4 h, 20 °C, autosampler stability high QC	relative to: nominal concentration	relative error	2.42%
O=C([O-])CN1CCN(CC(=O)[O-])CCN(CC(=O)NCCc2ccc3c(c2)C2C=CCC2C(c2cc4c(cc2Br)OCO4)N3)CCN(CC(=O)[O-])CC1.[111In+3] (stereo not shown)		mice with Hec50 tumour xenograft, Hec50 tumour	0.5 h		tissue uptake	3.81 ± 0.18 %ID/g
Oc1cccc(-c2cccc(O)n2)n1.[Cl-].[Cl-].[Ru+2].c1cnc2c(c1)ccc1cccnc12.c1cnc2c(c1)ccc1cccnc12	shake flask	octanol/buffer			logP of basic form	1.7
C[C@H](NC(=O)c1ccc2c(c1)C(=O)OC21c2ccc(O)cc2Oc2cc(O)ccc21)C(=O)N[C@@H](CCCCN)C(=O)N[C@@H](C)C(=O)N[C@@H](CCCCN)C(=O)N[C@@H](C)C(=O)N[C@@H](CCCCN)C(=O)N[C@@H](C)C(=O)N[C@@H](CCCCN)C(=O)N[C@@H](C)C(=O)N[C@@H](CCCCN)C(=O)N[C@@H](C)C(=O)N[C@@H](CCCCN)C(=O)N[C@@H](C)C(=O)N[C@@H](CCCCN)C(=O)N[C@@H](C)C(=O)N[C@@H](CC(N)=O)C(=O)N[C@@H](C)C(=O)N[C@@H](CC(N)=O)C(=O)N[C@@H](C)C(=O)N[C@@H](CC(N)=O)C(=O)O		bovine cartilage explants	24 h, desorption in 1 x PBS		released fraction of uptaken compound	80%
CCOc1c(C(C)(C)O)sc2cnc(Nc3ccc(N4CCC(N5CC6(COC6)C5)CC4)cc3OC)nc12		New Zealand rabbit, male, isolated Purkinje fibres	30 µM, 45 min, pacing 1 Hz		action potential amplitude change	-2%
C=C(c1cc(F)c(C(=O)O)c(F)c1)c1cc2c(cc1C)C(C)(C)CCC2(C)C		Sprague-Dawley rat, male	oral, 100 mg/kg, 2 h, sesame oil vehicle		blood triglycerides	53 ± 14.5 mg/dL
CC(=O)Nc1cc(C(=O)O)cc(O)c1O		human, male, faeces	oral, 100 mg	relative to: dose	radioactivity excreted in faeces	9.29%
COC(=O)c1ccc(-c2cn(Cc3cc(Cl)ccc3O[11CH3])nn2)cc1	PET, 1TCM	rhesus macaque, hippocampus	dose not given		distribution volume VT	0.461 mL/cm³
CN1CC[C@H](c2c(O)cc(O)c3c(=O)cc(/C=C/c4c(Cl)cccc4Cl)oc23)[C@H](O)C1	USP paddle dissolution	HCl buffer, 0.25% SLS	30 min, pH 1.2		dissolved drug	99%
CCCC[C@H](NC(=O)CNC(=O)CNC(=O)CN1CCN(CC(=O)O)CCN(CC(=O)O)CC1)C(=O)N[C@H]1CC(=O)NCCCC[C@@H](C(N)=O)NC(=O)[C@H](Cc2c[nH]c3ccccc23)NC(=O)[C@H](CCCNC(=N)N)NC(=O)[C@@H](Cc2ccccc2)NC(=O)[C@H](Cc2c[nH]cn2)NC1=O [copper-64 labelled]		female C57 mouse, B16/F1 melanoma	intravenous, 0.037 MBq, 4 h	relative to: tumour over liver	uptake ratio	16.9
COCCN(CC(N)=O)C(=O)CN(CCOC)C(=O)CN(CCOC)C(=O)CN(CCC(=O)O)C(=O)CN(CCOC)C(=O)CN(CCOC)C(=O)CN(CCOC)C(=O)CN(CCCCN)C(=O)CN(CCOC)C(=O)CN(CCOC)C(=O)CN(CCOC)C(=O)CN(CCOC)C(=O)CN(CCOC)C(=O)CN(CCOC)C(=O)C(Cc1ccccc1)NC(C)=O (stereo not shown)	potentiometric titration with KOH	100 x 1 mM KCl			pKa of COOH group	4.3
CC(=O)N[C@H](C)c1cc(Cl)ccc1Cn1c(=S)[nH]c(=O)c2[nH]ccc21		Sprague-Dawley rat, male, plasma	oral, 125 mg/kg/day	relative to: rat over human 15 mg	exposure ratio	1.6
COc1ccc(/C=C/c2ccc(-c3ccc(C)cn3)nc2)cc1	TCSPC	EtOH			fluorescence lifetime	0.92 ns
O=C(CCCCC[N+]#[C][99Tc-5]([C]#[N+]CCCCCC(=O)N[C@H]1C(O)O[C@H](CO)[C@@H](O)[C@@H]1O)([C]#[N+]CCCCCC(=O)N[C@H]1C(O)O[C@H](CO)[C@@H](O)[C@@H]1O)([C]#[N+]CCCCCC(=O)N[C@H]1C(O)O[C@H](CO)[C@@H](O)[C@@H]1O)([C]#[N+]CCCCCC(=O)N[C@H]1C(O)O[C@H](CO)[C@@H](O)[C@@H]1O)[C]#[N+]CCCCCC(=O)N[C@H]1C(O)O[C@H](CO)[C@@H](O)[C@@H]1O)N[C@H]1C(O)O[C@H](CO)[C@@H](O)[C@@H]1O (stereo partly shown)	dynamic SPECT	nude mouse U87 MG xenograft	55-60 min	relative to: tumour over muscle	tumour/muscle ratio	2.89
